{"data": "Measurements collected from several papers", "rep main protease": "Replicase polyprotein 1ab, main protease (rep, Severe acute respiratory syndrome coronavirus 2, UniProt P0DTD1)", "note": "± gives the spread as reported."}
{"Molecule": "CC[C@H](C)[C@H](NC(=O)[C@H](CC(C)C)NC(=O)[C@H](Cc1c[nH]c2ccccc12)NC(=O)[C@H](CCC(N)=O)NC(=O)[C@@H](NC(=O)[C@H](Cc1ccccc1)NC(=O)[C@H](C)NC(=O)[C@H](CCCCNC(=O)COCCOCCNC(=O)COCCOCCNC(=O)CC[C@H](NC(=O)CCCCCCCCCCCCCCCCCCC(=O)O)C(=O)O)NC(=O)[C@H](CCC(N)=O)NC(=O)[C@H](C)NC(=O)[C@@H](NC(=O)[C@H](CCCCN)NC(=O)[C@H](CC(=O)O)NC(=O)[C@H](CC(C)C)NC(=O)C(C)(C)NC(=O)[C@@H](NC(=O)[C@H](CO)NC(=O)[C@H](Cc1ccc(O)cc1)NC(=O)[C@H](CC(=O)O)NC(=O)[C@H](CO)NC(=O)[C@@H](NC(=O)[C@H](Cc1ccccc1)NC(=O)[C@@H](NC(=O)CNC(=O)[C@H](CCC(=O)O)NC(=O)C(C)(C)NC(=O)[C@@H](N)Cc1ccc(O)cc1)[C@@H](C)O)[C@@H](C)O)[C@@H](C)CC)[C@@H](C)CC)C(C)C)C(=O)N[C@@H](C)C(=O)NCC(=O)NCC(=O)N1CCC[C@H]1C(=O)N[C@@H](CO)C(=O)N[C@@H](CO)C(=O)NCC(=O)N[C@@H](C)C(=O)N1CCC[C@H]1C(=O)N1CCC[C@H]1C(=O)N1CCC[C@H]1C(=O)N[C@@H](CO)C(N)=O", "test system": "healthy subjects, single ascending dose", "setting": "5.0 mg, baseline", "measurement": "serum AST", "result": "24.2 ± 7.9 U/L"}
{"Molecule": "CCC(CC)COC(=O)[C@H](C)N[P@](=O)(OC[C@H]1O[C@@](C#N)(c2ccc3c(N)ncnn23)[C@H](O)[C@@H]1O)Oc1ccccc1", "target or system": "SARS-CoV-2", "assay": "viral replication, qRT-PCR of viral RNA", "test system": "Calu-3, Washington", "measurement": "EC90", "result": "400 ± 100 nM"}
{"Molecule": "Nc1ncnc2c([C@@H]3N[C@H](CO)[C@@H](O)[C@H]3O)c[nH]c12", "target or system": "Chikungunya virus", "assay": "viral replication", "test system": "HeLa, AF 15561", "setting": "12.5 µM", "measurement": "inhibition", "result": "7.1%"}
{"Molecule": "calpain inhibitor III", "target or system": "SARS-CoV-2", "assay": "viral replication", "test system": "293T-ACE2, USA-WA1/2020", "measurement": "EC90", "result": "304 nM"}
{"Molecule": "CC(C)(C)OC(=O)N[C@H]1CCCCC/C=C\\[C@@H]2C[C@@]2(C(=O)NS(=O)(=O)C2CC2)NC(=O)[C@@H]2C[C@@H](OC(=O)N3Cc4cccc(F)c4C3)CN2C1=O", "target or system": "rep main protease", "assay": "reporter gene (Gaussia luciferase), inhibitor", "setting": "20 µM", "measurement": "inhibition", "result": "2.73%"}
{"Molecule": "CC(C)(C)[C@H](NC(=O)C(F)(F)F)C(=O)N1C[C@H]2[C@@H]([C@H]1C(=O)N[C@H](C#N)C[C@@H]1CCNC1=O)C2(C)C", "target or system": "SARS-CoV-2", "assay": "viral replication, qRT-PCR of viral RNA", "test system": "Caco-2, Washington", "measurement": "EC90", "result": "300 ± 60 nM"}
{"Molecule": "COc1cc2c(cc1N1C[C@@H](C)N[C@@H](C)C1)N(C(=O)c1ccc(-c3ccc(-c4noc(C)n4)cc3C)cc1)CC2", "target or system": "SARS-CoV-2", "assay": "viral replication", "test system": "293T-ACE2, USA-WA1/2020", "measurement": "EC90", "result": "380 nM"}
{"Molecule": "N#C[C@@]1(n2ccc(N)nc2=O)O[C@H](CO)[C@@H](O)[C@H]1O", "target or system": "SARS-CoV-2", "assay": "viral replication, qRT-PCR of viral RNA", "test system": "Calu-3, Washington", "measurement": "EC90", "result": "1900 ± 700 nM"}
{"Molecule": "C(#Cc1nc2ncccc2nc1OCCN1CCCC1)c1ccccc1", "target or system": "rep main protease", "assay": "viral replication, mKate2 reporter", "test system": "SARS-CoV-2", "setting": "20 µM", "measurement": "inhibition", "result": "-1.43%"}
{"Molecule": "CC(C)OC(=O)[C@H](C)N[P@](=O)(CO[C@H](C)Cn1cnc2c(N)ncnc21)Oc1ccccc1", "target or system": "SARS-CoV-2", "assay": "viral replication", "test system": "Vero", "setting": "48 h", "measurement": "EC90", "result": "> 20000 nM"}
{"Molecule": "N#C[C@@]1(c2ccc3c(N)ncnn23)O[C@H](CO)[C@@H](O)[C@H]1O", "target or system": "SARS-CoV-2", "assay": "infectious virus yield", "test system": "Vero C1008, VOC-202012/01", "setting": "48 h, 90% decrease endpoint", "measurement": "EC90", "result": "93400 ± 4700 nM"}
{"Molecule": "Cn1cnc(Cn2c(=O)[nH]/c(=N\\c3cc4cn(C)nc4cc3Cl)n(Cc3cc(F)c(F)cc3F)c2=O)n1", "test system": "human, mild renal impairment, plasma", "setting": "oral, 375 mg single dose", "measurement": "Vz/F", "result": "19.7 L"}
{"Molecule": "C[C@@]1(O)[C@H](O)[C@@H](CO)O[C@H]1n1cc(F)c2c(N)ncnc21", "target or system": "SARS-CoV-2", "assay": "viral replication", "test system": "Vero", "setting": "48 h", "measurement": "EC90", "result": "28800 ± 800 nM"}
{"Molecule": "C[C@@H]1CN(c2ncc(C(O)CO)cc2Cl)CCN1c1nc2c(-c3cc(F)c(F)c(F)c3)cc(C(F)(F)F)cc2[nH]1 (some centres unmarked)", "target or system": "SARS-CoV-2", "assay": "viral replication, inhibitor", "test system": "Vero E6, USA-WA1/2020", "setting": "24 h", "measurement": "EC90", "result": "~1240 nM"}
{"Molecule": "CC(C)(C)[C@H](NC(=O)C(F)(F)F)C(=O)N1C[C@H]2[C@@H]([C@H]1C(=O)N[C@H](C#N)C[C@@H]1CCNC1=O)C2(C)C", "target or system": "SARS-CoV-2", "assay": "viral replication", "test system": "Omicron BA.1 strain", "setting": "48 h", "measurement": "EC90", "result": "69.2 ± 14.1 nM"}
{"Molecule": "CC[C@H](NC(=O)[C@H](CS(=O)(=O)CC1CC1)N[C@@H](c1ccc(F)cc1)C(F)(F)F)C(=O)C(=O)NC1CC1", "target or system": "SARS-CoV-2", "assay": "viral replication", "test system": "293T-ACE2, USA-WA1/2020", "measurement": "EC90", "result": "407 nM"}
{"Molecule": "Cn1cnc(Cn2c(=O)[nH]/c(=N\\c3cc4cn(C)nc4cc3Cl)n(Cc3cc(F)c(F)cc3F)c2=O)n1", "target or system": "SARS-CoV-2", "assay": "viral replication", "test system": "Omicron BA.1 strain", "setting": "24 h", "measurement": "EC90", "result": "66 ± 12.5 nM"}
{"note": "A few entries again:"}
{"Molecule": "CC(C)OC(=O)[C@H](C)N[P@](=O)(CO[C@H](C)Cn1cnc2c(N)ncnc21)Oc1ccccc1", "target or system": "SARS-CoV-2", "assay": "viral replication", "test system": "Vero", "setting": "48 h", "measurement": "EC90", "result": "> 20000 nM"}
{"Molecule": "N#C[C@@]1(n2ccc(N)nc2=O)O[C@H](CO)[C@@H](O)[C@H]1O", "target or system": "SARS-CoV-2", "assay": "viral replication, qRT-PCR of viral RNA", "test system": "Calu-3, Washington", "measurement": "EC90", "result": "1900 ± 700 nM"}
{"Molecule": "CC(C)(C)[C@H](NC(=O)C(F)(F)F)C(=O)N1C[C@H]2[C@@H]([C@H]1C(=O)N[C@H](C#N)C[C@@H]1CCNC1=O)C2(C)C", "target or system": "SARS-CoV-2", "assay": "viral replication", "test system": "Omicron BA.1 strain", "setting": "48 h", "measurement": "EC90", "result": "69.2 ± 14.1 nM"}
